Experimental data collected from several papers.
Protocols differ between the studies behind these lines.
MTNR1A: Melatonin receptor type 1A (MTNR1A, Homo sapiens, UniProt P48039)
UniProt P48039, sequence (whole entry, looked up): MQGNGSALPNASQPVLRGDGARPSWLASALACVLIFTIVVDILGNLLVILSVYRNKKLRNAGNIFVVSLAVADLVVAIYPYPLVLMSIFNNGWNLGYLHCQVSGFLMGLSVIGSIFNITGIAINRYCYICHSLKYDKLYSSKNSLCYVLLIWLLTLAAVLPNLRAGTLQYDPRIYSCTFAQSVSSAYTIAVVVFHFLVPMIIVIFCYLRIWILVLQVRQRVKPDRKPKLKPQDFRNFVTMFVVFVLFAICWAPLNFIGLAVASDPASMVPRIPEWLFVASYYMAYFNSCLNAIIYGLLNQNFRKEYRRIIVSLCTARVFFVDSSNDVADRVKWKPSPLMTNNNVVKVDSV
UniProt Q9NRM7, sequence (whole entry, looked up): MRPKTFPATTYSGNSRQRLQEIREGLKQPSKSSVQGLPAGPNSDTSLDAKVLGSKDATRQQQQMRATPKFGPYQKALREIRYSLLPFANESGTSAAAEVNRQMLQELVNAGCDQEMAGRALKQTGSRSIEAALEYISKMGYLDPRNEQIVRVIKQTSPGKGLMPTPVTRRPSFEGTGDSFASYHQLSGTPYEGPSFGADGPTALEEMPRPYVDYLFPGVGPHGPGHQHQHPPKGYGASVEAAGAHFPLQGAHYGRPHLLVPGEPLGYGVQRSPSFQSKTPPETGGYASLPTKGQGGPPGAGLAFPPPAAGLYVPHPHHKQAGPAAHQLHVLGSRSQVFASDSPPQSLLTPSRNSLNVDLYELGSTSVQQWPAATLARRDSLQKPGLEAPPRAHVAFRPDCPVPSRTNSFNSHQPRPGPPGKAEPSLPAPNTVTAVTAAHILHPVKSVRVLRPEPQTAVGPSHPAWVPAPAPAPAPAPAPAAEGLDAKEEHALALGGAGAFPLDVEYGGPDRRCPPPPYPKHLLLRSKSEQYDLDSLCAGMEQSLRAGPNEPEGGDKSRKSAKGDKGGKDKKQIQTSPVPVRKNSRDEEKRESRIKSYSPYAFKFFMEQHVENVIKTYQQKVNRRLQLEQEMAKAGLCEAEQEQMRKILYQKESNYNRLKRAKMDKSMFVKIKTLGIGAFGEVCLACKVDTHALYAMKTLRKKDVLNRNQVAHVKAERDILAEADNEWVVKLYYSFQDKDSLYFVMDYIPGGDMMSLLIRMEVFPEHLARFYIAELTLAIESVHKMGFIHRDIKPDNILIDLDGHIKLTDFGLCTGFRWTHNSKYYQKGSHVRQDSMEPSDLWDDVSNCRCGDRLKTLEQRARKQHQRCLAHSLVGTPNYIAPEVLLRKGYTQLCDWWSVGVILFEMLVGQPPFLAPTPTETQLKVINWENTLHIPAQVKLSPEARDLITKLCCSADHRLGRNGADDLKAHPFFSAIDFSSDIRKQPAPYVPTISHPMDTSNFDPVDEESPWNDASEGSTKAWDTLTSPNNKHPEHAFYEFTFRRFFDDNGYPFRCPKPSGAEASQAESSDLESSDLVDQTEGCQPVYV
UniProt O43781, sequence (whole entry, looked up): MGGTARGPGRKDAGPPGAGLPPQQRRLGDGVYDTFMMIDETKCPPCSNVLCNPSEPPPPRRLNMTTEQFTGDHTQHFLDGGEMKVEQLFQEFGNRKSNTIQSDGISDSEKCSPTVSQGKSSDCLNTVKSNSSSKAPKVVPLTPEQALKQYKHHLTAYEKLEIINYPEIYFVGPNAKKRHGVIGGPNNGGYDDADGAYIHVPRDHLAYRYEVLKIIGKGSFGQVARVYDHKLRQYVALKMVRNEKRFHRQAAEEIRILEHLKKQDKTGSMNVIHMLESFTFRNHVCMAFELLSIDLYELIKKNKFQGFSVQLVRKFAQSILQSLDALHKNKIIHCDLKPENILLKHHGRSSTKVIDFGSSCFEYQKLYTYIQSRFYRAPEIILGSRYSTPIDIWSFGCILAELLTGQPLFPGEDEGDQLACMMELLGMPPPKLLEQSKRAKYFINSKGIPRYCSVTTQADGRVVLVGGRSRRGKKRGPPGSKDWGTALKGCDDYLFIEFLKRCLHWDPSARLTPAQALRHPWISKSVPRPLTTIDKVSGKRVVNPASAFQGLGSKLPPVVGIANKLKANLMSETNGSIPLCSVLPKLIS
UniProt Q16832, sequence (whole entry, looked up): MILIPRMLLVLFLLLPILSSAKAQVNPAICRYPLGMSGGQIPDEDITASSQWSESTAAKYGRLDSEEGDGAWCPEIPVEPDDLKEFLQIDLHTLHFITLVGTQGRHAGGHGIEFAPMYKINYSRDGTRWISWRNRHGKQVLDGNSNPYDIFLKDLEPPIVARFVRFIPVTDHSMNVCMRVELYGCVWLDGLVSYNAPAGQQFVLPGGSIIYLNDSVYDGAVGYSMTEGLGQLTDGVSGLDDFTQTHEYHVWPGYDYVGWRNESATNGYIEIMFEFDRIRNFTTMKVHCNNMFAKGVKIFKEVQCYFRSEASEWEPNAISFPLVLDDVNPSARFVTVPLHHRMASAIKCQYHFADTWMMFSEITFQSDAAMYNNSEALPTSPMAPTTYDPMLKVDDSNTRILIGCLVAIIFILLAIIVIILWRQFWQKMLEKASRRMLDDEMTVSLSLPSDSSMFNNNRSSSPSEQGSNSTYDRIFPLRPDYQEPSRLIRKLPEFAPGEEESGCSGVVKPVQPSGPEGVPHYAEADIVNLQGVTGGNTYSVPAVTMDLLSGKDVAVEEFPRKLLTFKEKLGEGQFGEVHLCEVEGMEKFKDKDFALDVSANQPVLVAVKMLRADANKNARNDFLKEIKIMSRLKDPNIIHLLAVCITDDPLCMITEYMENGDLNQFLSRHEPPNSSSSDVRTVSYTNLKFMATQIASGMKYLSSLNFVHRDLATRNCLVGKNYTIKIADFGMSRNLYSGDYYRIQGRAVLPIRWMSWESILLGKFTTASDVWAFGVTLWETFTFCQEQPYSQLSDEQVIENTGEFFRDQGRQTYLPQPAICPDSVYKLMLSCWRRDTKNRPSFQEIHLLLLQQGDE
UniProt Q9H2K8, sequence (whole entry, looked up): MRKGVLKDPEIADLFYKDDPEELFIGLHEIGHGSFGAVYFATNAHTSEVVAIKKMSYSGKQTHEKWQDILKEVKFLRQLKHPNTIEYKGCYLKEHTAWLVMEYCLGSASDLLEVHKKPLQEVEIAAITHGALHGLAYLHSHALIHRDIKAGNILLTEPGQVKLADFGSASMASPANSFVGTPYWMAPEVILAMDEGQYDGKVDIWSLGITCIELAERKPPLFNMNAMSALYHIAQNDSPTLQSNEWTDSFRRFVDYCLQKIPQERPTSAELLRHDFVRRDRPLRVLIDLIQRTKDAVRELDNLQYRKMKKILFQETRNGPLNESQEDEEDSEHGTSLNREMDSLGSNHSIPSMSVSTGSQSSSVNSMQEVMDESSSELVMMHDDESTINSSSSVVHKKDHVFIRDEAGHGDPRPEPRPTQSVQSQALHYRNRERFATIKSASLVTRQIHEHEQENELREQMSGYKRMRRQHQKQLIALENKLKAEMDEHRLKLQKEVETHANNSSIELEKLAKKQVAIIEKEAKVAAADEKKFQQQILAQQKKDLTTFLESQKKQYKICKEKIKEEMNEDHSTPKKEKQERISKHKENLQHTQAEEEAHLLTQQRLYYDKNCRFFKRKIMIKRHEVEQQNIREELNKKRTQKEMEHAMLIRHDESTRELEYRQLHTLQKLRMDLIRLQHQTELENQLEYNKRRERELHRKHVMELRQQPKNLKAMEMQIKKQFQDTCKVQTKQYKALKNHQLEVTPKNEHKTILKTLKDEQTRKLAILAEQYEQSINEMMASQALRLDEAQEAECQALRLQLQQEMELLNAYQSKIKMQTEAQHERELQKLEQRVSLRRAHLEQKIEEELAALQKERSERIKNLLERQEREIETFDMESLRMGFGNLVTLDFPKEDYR
UniProt Q9BRS2, sequence (whole entry, looked up): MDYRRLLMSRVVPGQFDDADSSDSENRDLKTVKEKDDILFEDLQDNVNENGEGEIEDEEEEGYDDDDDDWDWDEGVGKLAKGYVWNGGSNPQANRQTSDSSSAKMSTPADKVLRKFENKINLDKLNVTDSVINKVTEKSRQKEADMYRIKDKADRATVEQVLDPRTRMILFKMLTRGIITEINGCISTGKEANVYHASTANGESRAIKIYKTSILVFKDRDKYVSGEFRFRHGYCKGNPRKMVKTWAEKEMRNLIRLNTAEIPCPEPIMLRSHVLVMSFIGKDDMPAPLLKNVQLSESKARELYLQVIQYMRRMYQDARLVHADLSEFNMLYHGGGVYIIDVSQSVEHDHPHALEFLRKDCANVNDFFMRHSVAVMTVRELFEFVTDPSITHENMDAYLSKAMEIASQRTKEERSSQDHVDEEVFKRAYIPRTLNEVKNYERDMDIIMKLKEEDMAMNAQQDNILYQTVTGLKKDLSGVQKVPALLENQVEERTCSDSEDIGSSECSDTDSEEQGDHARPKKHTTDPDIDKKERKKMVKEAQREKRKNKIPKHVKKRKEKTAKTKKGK
UniProt P18031, sequence (whole entry, unmodified, looked up): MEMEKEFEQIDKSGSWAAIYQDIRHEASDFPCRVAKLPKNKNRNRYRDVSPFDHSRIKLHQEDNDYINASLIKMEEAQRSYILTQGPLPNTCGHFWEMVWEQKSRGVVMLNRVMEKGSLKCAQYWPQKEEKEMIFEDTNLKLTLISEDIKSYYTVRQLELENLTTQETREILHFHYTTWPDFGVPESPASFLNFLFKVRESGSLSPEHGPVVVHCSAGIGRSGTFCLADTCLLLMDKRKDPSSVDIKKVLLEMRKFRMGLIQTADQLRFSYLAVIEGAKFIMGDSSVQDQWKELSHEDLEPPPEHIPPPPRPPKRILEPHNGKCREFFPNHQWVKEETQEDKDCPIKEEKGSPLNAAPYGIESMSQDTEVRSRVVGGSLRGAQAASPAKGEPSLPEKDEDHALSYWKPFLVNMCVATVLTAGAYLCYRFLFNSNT

`COc1cc(-c2cncc3c2CN(C)Cc2cc(N4CCNCC4)ccc2-3)cc(OC)c1OC` gave a remaining activity of 91% (DDR2 (Homo sapiens, UniProt Q16832); enzyme activity, inhibitor; 1 µM).
For `Nc1ncnc2occ(-c3ccc(NC(=O)Nc4cc(C(F)(F)F)ccc4F)cc3)c12`, the remaining signal was 100% (PIK3CA (Homo sapiens, UniProt P42336, C420R); cell-free assay, inhibitor; 20 µM).
The remaining binding of `C=CC(=O)N1CCC(COCC(=O)N2CCN(c3nc(-c4cnc(N)nc4C(F)F)nc(N4CCOC[C@@H]4C)n3)CC2)CC1` is reported as 71% (RIOK1 (Homo sapiens, UniProt Q9BRS2); binding, competition with immobilised ligand; 1 µM).
`C1=C/COCc2cc(ccc2OCCN2CCCC2)Nc2nccc(n2)-c2cccc(c2)COC/1` has a remaining signal of 88% (LATS2 (Homo sapiens, UniProt Q9NRM7); cell-free assay; 0.1 µM).
With `Cc1cc(NS(=O)(=O)c2ccc(N=NN(C)O)cc2)no1` the inhibition was 41.4% (DPPH scavenging, absorbance; 300 µg/mL).
With `CCCCC(=O)Nc1ccc(-c2ccc3ncn(CCC)c(=O)c3c2)cn1` the remaining binding was 100% (STK38 (Homo sapiens, UniProt Q15208); binding, competition with immobilised ligand; 0.5 µM).
The cell death of `CC(=NNC(=O)c1ccncc1)c1ccc(Nc2nnc(-c3ccc(Cl)cc3)c3ccccc23)cc1` is reported as 92.2% (HepG2; cell growth or viability, MTT; 0.625 µM).
`Cc1cc(NS(=O)(=O)c2ccc(N=NN(O)c3ccccc3)cc2)no1` gave an inhibition of 30% (DPPH scavenging, absorbance; 120 µg/mL).
`FC(F)(F)Oc1cccc(-c2cnc3ccc(-c4ccncc4)nn23)c1` — result for “activity vs control”: 34% (DYRK3 (Homo sapiens, UniProt O43781); enzyme activity, inhibitor, radiometric; 5 µM).
For `COCC(CNC(C)=O)c1cccc2ccc(OC)cc12` (stereo not shown), the Emax was 67% (MTNR1A; cAMP, agonist, TR-FRET; CHO-K1; 20 min).
`CC(=NNC(=O)c1ccccc1)c1ccc(Nc2nnc(-c3ccc(Cl)cc3)c3ccccc23)cc1` has a cell death of 97.3% (HepG2; cell growth or viability, MTT; 5 µM).
`Cc1cc([C@@H](C)Nc2ccccc2C(=O)O)c2nc(N3CCC(F)(F)CC3)c(C#N)c(=O)n2c1` has a remaining binding of 74% (BRAF (Homo sapiens, UniProt P15056, V600E); binding, competition with immobilised ligand; 1 µM).
For `COc1cc(I)c2[nH]cc(CCNC(C)=O)c2c1`, the Emax was 102% (MTNR1A; cAMP, agonist, TR-FRET; CHO-K1; 20 min).
`Cc1cc(-c2c3ccccc3c(Br)c3sc(C)c(C)c23)cc(C)c1O[C@H](Cc1ccccc1)C(=O)O` gave a ΔTm of over 5 °C (PTPN1 (Homo sapiens, UniProt P18031); thermal stability, DSF).
With `CC[C@H](C)[C@H](NC(=O)[C@H](CCC(N)=O)NC(=O)[C@@H](NC(=O)[C@H](CCSC)NC(=O)[C@H](CCCCN)NC(=O)[C@H](CO)NC(=O)[C@@H](NC(=O)[C@H](CCSC)NC(=O)[C@H](CC(C)C)NC(=O)[C@H](CC(N)=O)NC(=O)[C@@H](NC(=O)[C@@H](NC(=O)[C@H](CO)NC(=O)[C@H](CC(C)C)NC(=O)[C@H](C)NC(=O)[C@H](CCCNC(=N)N)NC(=O)[C@H](CCC(=O)O)NC(=O)[C@H](Cc1ccc(O)cc1)NC(=O)[C@H](Cc1ccccc1)NC(=O)[C@H](C)NC(=O)[C@H](CC(N)=O)NC(=O)[C@@H](N)CCCCN)[C@@H](C)CC)[C@@H](C)CC)[C@@H](C)O)C(C)C)C(=O)N[C@@H](CC(N)=O)C(=O)N[C@H](C(=O)O)C(C)C` the remaining activity was 100% (MAPK3 (Homo sapiens, UniProt P27361); enzyme activity, inhibitor, radiometric; 10 µM, 20 min).
With `CNc1ncc2c(/C=C/C(=O)N3CCC(OC)CC3)nn(Cc3cccc(C(F)(F)F)c3)c2n1` the remaining activity was 98% (TAOK3 (Homo sapiens, UniProt Q9H2K8); enzyme activity, inhibitor, radiometric; 1 µM).

Some of these lines once more:
`C1=C/COCc2cc(ccc2OCCN2CCCC2)Nc2nccc(n2)-c2cccc(c2)COC/1` has a remaining signal of 88% (LATS2 (Homo sapiens, UniProt Q9NRM7); cell-free assay; 0.1 µM).
With `Cc1cc(NS(=O)(=O)c2ccc(N=NN(C)O)cc2)no1` the inhibition was 41.4% (DPPH scavenging, absorbance; 300 µg/mL).
